Measurements from different studies.
± marks the error that the study gave.
Chain of UniProt O60928 (whole entry, unmodified, looked up): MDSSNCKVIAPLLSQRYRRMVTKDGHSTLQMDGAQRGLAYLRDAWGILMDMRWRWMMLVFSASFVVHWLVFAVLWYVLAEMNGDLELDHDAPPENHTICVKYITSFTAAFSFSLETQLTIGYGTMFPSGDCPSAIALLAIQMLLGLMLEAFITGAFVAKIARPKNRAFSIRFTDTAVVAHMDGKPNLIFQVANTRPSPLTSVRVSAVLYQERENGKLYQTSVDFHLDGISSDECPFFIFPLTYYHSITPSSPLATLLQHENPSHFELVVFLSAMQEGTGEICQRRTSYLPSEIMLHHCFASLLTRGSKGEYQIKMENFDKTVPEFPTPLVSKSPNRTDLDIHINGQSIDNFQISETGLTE
Chain of UniProt Q9Y572 (whole entry, looked up): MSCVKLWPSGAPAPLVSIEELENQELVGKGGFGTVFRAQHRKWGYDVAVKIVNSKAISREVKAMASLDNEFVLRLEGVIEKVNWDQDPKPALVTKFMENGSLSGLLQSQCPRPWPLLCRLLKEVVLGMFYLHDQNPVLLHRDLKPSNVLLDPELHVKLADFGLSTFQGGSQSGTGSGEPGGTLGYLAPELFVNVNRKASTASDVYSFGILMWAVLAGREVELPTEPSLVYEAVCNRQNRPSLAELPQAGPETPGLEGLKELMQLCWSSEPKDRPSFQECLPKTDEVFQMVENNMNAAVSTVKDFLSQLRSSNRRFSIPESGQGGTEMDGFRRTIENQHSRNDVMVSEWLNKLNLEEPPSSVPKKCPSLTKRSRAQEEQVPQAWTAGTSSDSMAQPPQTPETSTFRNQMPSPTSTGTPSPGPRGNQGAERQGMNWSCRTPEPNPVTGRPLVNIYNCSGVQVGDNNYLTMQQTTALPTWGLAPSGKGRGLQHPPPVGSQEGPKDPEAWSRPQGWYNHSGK
Chain of UniProt P05186 (whole entry, looked up): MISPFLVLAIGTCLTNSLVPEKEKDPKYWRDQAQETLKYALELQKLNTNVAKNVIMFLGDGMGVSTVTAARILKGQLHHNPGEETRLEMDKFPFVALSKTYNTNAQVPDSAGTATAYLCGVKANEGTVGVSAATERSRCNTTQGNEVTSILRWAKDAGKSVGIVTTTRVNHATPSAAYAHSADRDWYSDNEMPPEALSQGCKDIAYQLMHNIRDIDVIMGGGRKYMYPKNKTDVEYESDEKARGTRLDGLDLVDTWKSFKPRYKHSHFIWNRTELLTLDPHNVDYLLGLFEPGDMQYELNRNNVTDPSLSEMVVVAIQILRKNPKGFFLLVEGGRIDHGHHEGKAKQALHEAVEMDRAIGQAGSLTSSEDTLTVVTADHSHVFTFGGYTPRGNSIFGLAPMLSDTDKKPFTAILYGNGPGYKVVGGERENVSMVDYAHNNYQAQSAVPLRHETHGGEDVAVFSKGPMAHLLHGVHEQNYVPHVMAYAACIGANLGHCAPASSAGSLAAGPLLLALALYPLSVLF
Chain of UniProt P07374 (whole entry, looked up): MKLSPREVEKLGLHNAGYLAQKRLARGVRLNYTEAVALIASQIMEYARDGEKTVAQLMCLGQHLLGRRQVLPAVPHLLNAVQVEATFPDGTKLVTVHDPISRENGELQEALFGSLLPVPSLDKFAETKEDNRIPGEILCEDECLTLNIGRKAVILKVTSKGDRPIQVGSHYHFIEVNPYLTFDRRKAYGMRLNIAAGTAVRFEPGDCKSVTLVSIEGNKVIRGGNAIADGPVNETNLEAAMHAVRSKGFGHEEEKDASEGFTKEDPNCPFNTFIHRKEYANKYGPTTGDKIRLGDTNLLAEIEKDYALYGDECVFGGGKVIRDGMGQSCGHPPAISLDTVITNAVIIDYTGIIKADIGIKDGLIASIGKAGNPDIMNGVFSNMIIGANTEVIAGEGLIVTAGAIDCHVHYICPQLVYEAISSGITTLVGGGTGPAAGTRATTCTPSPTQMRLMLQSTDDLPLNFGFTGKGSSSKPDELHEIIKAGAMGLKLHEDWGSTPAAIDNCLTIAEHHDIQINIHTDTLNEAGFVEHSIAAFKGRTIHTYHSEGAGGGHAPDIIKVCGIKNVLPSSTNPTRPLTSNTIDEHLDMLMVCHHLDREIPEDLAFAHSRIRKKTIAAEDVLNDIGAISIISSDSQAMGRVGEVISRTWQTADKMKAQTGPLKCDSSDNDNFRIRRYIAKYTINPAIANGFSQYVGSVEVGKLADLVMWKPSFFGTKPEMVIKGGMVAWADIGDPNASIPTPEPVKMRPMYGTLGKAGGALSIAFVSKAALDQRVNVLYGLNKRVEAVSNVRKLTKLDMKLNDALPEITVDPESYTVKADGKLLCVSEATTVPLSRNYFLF
Chain of UniProt Q9JJL3 (whole entry, looked up): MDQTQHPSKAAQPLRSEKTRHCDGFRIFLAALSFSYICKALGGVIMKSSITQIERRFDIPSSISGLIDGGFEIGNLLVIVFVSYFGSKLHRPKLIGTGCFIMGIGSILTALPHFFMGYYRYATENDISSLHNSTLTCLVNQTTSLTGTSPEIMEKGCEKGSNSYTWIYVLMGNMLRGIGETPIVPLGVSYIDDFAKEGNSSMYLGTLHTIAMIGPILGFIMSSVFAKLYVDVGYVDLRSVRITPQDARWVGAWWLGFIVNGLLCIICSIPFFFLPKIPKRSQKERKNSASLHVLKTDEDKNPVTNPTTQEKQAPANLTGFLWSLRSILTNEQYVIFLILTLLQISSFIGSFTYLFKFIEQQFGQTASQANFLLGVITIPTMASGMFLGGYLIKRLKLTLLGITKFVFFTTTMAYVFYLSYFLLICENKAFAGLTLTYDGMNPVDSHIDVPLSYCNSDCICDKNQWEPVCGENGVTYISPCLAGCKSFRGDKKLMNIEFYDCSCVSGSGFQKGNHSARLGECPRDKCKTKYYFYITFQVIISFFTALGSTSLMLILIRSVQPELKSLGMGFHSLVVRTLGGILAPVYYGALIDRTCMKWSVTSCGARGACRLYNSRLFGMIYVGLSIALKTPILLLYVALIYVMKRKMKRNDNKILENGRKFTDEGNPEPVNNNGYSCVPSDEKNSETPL
Chain of UniProt P08842 (whole entry, looked up): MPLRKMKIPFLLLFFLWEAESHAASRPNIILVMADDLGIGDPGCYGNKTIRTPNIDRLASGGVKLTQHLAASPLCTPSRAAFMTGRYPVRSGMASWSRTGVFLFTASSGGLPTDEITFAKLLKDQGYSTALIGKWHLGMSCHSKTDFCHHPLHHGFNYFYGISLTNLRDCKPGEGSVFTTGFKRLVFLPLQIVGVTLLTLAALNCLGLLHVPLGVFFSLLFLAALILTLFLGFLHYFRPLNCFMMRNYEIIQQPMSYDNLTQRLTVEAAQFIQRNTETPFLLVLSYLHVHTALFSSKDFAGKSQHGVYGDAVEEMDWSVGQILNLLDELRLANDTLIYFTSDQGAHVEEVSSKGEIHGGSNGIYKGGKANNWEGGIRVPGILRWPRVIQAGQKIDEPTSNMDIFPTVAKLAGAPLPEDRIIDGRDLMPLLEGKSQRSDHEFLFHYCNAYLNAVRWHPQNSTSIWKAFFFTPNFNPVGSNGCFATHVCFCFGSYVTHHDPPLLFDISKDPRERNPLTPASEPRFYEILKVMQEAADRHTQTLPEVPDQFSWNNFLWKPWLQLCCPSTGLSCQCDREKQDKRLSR

C[C@@H]1O[C@@H](OC[C@H]2O[C@@H](Oc3cc(O)c4c(=O)cc(-c5ccc(O)cc5)oc4c3)[C@H](O)[C@@H](O)[C@@H]2O)[C@H](O)[C@H](O)[C@H]1O  IC50 (tyrosinase (Agaricus bisporus); enzyme activity; 30 min, pH 6.8, 37 °C, together with: L-DOPA): 670 µM
CC(C)(C)n1nc(-c2ccc3sc(C4CCCC4)nc3c2)c2c(N)ncnc21  IC50 (Receptor-interacting serine/threonine-protein kinase 3 (RIPK3, Homo sapiens, UniProt Q9Y572); enzyme activity, inhibitor, ADP detection): 0.081 µM
O=c1cc(-c2cccc3ccccc23)[nH][nH]1  IC50 (Alkaline phosphatase, tissue-nonspecific isozyme (ALPL, Homo sapiens, UniProt P05186); enzyme activity, inhibitor, luminescence; together with: 50 µM CDP-star, 100 mM DEA): 2.88 ± 0.086 µM
CN1CCN(CCC(=O)Nc2ccc3c(c2)Sc2cccc(-c4cc(=O)cc(N5CCOCC5)o4)c2S3)CC1  IC50 (Serine-protein kinase ATM (ATM, Homo sapiens, UniProt Q13315); enzyme activity, inhibitor): 0.003 µM
NC(=O)[C@@H]1CC[C@@H]2CN1C(=O)N2OS(=O)(=O)O  IC50 (dacA (Streptococcus pneumoniae, UniProt Q8DQ99); binding, Bocillin FL competition; Streptococcus pneumoniae R6 membranes; together with: 100 µM Bocillin FL): 30.5 µM
OC[C@H]1O[C@H]([S-])[C@H](O)[C@@H](O)[C@@H]1O.[Au+]  IC50 (Carbamate kinase (Giardia intestinalis, UniProt A8BB85); enzyme activity, ATP luminescence): 1.46 µM
Oc1cc(O)c2c(c1)O[C@H](c1ccc(O)c(O)c1)[C@H](O)[C@H]2c1c(O)cc(O)c2c1O[C@H](c1ccc(O)c(O)c1)[C@H](O)C2  IC50 (alpha-glucosidase (Bacillus stearothermophilus); inhibitor; 20 min, pH 6.8, 60 °C, together with: pNPG substrate): 8.5 ± 1.5 µM
Cc1cc(OCC(=O)N/N=C/c2cccc(OCc3cn(Cc4ccc(F)cc4)nn3)c2)c2c(C)cc(=O)oc2c1  IC50 (Urease (Canavalia ensiformis, UniProt P07374); enzyme activity, inhibitor): 8.42 ± 0.53 µM
N=c1n(Cc2ccccc2)c2ccccc2n1CC(O)COc1ccccc1Cl (centres unmarked)  IC50 (Inward rectifier potassium channel 13 (KCNJ13, Homo sapiens, UniProt O60928, M125R); ion flux, inhibitor): 5.33 µM
CO[C@H]1/C=C/O[C@@]2(C)Oc3c(C)c(O)c4c(O)c(c(/C=N/N5CCN(C)CC5)c(O)c4c3C2=O)NC(=O)/C(C)=C\C=C\[C@H](C)[C@H](O)[C@@H](C)[C@@H](O)[C@@H](C)[C@H](OC(C)=O)[C@@H]1C  IC50 (Solute carrier organic anion transporter family member 1B2 (Slco1b2, Mus musculus, UniProt Q9JJL3); transport, inhibitor; HEK293 overexpressing; together with: sorafenib glucuronide 10 µM): ~1 µM
N#Cc1ccc(C(CCc2ccc(OS(N)(=O)=O)c(Br)c2)n2cncn2)cc1 (racemic)  IC50 (Steryl-sulfatase (STS, Homo sapiens, UniProt P08842); enzyme activity, inhibitor): > 10 µM

Excerpt of the above:
CN1CCN(CCC(=O)Nc2ccc3c(c2)Sc2cccc(-c4cc(=O)cc(N5CCOCC5)o4)c2S3)CC1  IC50 (Serine-protein kinase ATM (ATM, Homo sapiens, UniProt Q13315); enzyme activity, inhibitor): 0.003 µM
